Results of several laboratories.
Parts stem from different laboratories: compare values within a part only. Positions count from the first letter of the parent shown.

Set 1
Target: ABI1, truncated, D143A, DHFR fusion (Arabidopsis thaliana)
Technique: DHFR PCA, deep sequencing
Medium: yeast
Notes: methotrexate growth selection, single substitutions
Added: (+)-ABA 0.0091 µM
Baseline: wild-type fitted maximum
Reading: higher = stronger binding
Parent: PYL1, truncated, DHFR fusion (Arabidopsis thaliana); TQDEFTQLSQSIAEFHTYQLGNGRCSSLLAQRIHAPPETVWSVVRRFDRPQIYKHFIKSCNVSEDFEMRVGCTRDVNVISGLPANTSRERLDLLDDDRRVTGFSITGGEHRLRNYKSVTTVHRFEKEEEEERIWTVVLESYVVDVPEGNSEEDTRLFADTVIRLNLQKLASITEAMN; partner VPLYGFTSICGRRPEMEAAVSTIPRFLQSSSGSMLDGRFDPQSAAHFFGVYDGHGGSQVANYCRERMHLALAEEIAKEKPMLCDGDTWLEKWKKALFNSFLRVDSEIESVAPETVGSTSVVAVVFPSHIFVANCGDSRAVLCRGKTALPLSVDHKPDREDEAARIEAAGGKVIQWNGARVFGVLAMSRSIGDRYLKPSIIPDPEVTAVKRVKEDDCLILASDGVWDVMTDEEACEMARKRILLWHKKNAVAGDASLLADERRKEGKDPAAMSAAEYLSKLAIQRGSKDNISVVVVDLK
Variant | relative binding score [%]
V78A | 10.3
E174T | -1.05
S27M | 2.26
N61Q | 52.5
T1K | 17.6
N165E | 3.56
D65P | 45.2
V121M | -1.93
V43D | 0.286
F47N | -3.24
V118Y | 6.66
I12Y | -3.34

Set 2
Target: CCNB1, cyclin fold, Cln2 fusion (human)
Technique: yeast growth competition, sequencing
Medium: yeast
Notes: weak parent motif
Baseline: not given
Reading: higher = stronger binding
Parent: RB1 docking peptide (human); PKPLKKLRFDIEG
Variant | normalised enrichment score
PKPLKKLKFDIEG [R8K] | 0.266
HKPLKKLRFDIEG [P1H] | 1.1
PKPLHKLRFDIEG [K5H] | 0.708
IKPLKKLRFDIEG [P1I] | -0.0794
PGPLKKLRFDIEG [K2G] | 0.395
PKPLKKLRFDHEG [I11H] | 0.789
PKPLKLLRFDIEG [K6L] | 0.136
PKPLKKLRFDQEG [I11Q] | -0.949
PKPLKKLRPDIEG [F9P] | 0.198
PKPLAKLRFDIEG [K5A] | 0.0794
PKPLKKLRFDTEG [I11T] | -0.224

Set 3
Target: RNA binding protein fox-1 homolog 2, RRM domain, GST-SBP tag (RBFOX2, Homo sapiens, UniProt O43251-10, residues 100-194)
Technique: RNA Bind-n-Seq
Molecule type: RNA
Medium: in vitro
Tested at: 365 nM
Notes: natural RNA segment, single round, ends assumed
Baseline: no-protein control
Reading: higher = stronger binding
Shared flanks, not repeated: GGGAGUUCUACAGUCCGACGAUC … UGGAAUUCUCGGGUGCCAA
Target sequence (chain): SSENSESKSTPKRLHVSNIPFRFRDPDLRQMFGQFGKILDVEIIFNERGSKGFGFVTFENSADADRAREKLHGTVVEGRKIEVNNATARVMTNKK
Sequence | RBNS enrichment (R)
GAUAUUGUUAGGUGGAAUAACUUAGAAUAAAAUGAGAAUUCUUGAGUUAUAUUUUGUACUAUGGUUUAGGGCUAUGACUAAUAUUUCAGGCCAUUUCCAGUGAAAGAAAC | 0.641
UCCAGUCUUCCCUUUAAAAGCCUGUGGCAUUUUUCCUCCUUCUCCCUAACUUUAGAAAUGUUGUACUUGGCUAUUUUGAUUAGGGAAGAGGGAUGUGGUCUCUGAUCUCU | 0.586
UCCUUCGUUAUAACCACAAUGAGAUAAGUAUUGGCAUUAGUGUUCAGUGCCAUUUUAUACUUUCUCUCUGUGUUCUCUGUAUUGUACUAACCAACCUCCCAAAUCGCUGA | 0.584
UUAUUCGUGUUAGCUGAAAUGCAUUCAGACUUUGUUCUGCGGUGCCCACAGGACUUACCCCUGUAUGUACAGGAUUUUUGUAUGAAAGUUUUGUUUGAUUCUGAGACUCU | 0.376
GAAAAUUCUCAACAAUAAUGUUUGCCUUCUAGUUUAAGACAUGGUGUAUUUUAGAAAUUACCUGAAGUGAAGCUAUCACGAAGUGAGUGUAUCACCUGGUGAGCGAGUGA | 0.375
GGGGUAUUGCCACGCUGUUGUCUUGCUGCCCAUUCACUCCAUGUGCUGCUGUCCUUCCUUCACUUCAUACUCUCAAAGAAACCAUCACCCUUUCUUCCUAUUUUUUUUUG | 1.29
GAGAGACUGCCAUACAUAAUAUAUGACUUCCUAGGGAUCUGAAAUCCAUAAACUAAGAGAAACUGUGUAUAGCUUACCUGAACAGGAAUCCUUACUGAUAUUUAUAGAAC | 0.303
UGUGUAGGAAAUAAUUUAAUUACAAGUCCAGGAAUGGUCUGCUCUACUCAUGGGUGGAGGAGACCAGUGCCGACCCCGUGAGAGCUGAAGGUGAUGCUGAGGUCCCUUGU | 0.318

Mixed results
Molecule | target | test | test system | conditions | scale | measurement | value
PhoQ, residues 284 288 289 292 302 303 TAVSDG | PhoP, residues 12 14 15 18 19 AWHSL (Escherichia coli, UniProt P23836) | Sort-seq, refers to: YFP reporter | E. coli | PhoQ-PhoP variant library, added: 10 µM Mg2+ | baseline: high Mg2+ state, higher = stronger signaling | fold induction | 2.05

Some of these lines once more (set 3):
Sequence | RBNS enrichment (R)
GAGAGACUGCCAUACAUAAUAUAUGACUUCCUAGGGAUCUGAAAUCCAUAAACUAAGAGAAACUGUGUAUAGCUUACCUGAACAGGAAUCCUUACUGAUAUUUAUAGAAC | 0.303
UGUGUAGGAAAUAAUUUAAUUACAAGUCCAGGAAUGGUCUGCUCUACUCAUGGGUGGAGGAGACCAGUGCCGACCCCGUGAGAGCUGAAGGUGAUGCUGAGGUCCCUUGU | 0.318
